Measurements from different studies.
Compare with care: the assays were run in different laboratories. ± marks the error that the study gave.
Sequence of UniProt P54753 (whole entry, looked up): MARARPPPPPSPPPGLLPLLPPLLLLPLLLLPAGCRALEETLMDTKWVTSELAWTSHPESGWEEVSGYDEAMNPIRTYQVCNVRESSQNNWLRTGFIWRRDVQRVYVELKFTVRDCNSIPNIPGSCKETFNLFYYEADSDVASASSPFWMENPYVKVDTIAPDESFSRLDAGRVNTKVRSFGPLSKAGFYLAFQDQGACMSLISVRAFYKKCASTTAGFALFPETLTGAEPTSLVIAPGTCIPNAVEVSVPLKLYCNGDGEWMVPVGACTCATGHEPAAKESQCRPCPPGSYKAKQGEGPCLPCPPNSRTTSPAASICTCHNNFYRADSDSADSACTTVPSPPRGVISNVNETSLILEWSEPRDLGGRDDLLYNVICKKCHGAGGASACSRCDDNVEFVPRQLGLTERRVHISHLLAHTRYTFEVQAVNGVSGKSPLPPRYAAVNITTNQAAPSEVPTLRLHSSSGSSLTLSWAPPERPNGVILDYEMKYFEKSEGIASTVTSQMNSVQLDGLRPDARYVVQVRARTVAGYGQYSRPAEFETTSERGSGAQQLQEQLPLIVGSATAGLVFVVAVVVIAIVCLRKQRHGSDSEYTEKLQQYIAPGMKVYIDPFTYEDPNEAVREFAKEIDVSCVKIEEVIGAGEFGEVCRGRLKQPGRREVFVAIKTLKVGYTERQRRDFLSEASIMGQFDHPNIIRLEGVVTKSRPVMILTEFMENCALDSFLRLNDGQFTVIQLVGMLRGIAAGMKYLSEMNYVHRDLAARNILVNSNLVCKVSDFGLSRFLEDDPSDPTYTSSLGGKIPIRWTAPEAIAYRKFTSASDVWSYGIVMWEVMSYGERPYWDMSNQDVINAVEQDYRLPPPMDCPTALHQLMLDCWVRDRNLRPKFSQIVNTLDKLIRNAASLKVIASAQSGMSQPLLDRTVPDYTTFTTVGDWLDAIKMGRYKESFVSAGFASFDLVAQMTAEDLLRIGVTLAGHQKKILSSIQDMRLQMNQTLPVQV
Sequence of UniProt P53779 (whole entry, looked up): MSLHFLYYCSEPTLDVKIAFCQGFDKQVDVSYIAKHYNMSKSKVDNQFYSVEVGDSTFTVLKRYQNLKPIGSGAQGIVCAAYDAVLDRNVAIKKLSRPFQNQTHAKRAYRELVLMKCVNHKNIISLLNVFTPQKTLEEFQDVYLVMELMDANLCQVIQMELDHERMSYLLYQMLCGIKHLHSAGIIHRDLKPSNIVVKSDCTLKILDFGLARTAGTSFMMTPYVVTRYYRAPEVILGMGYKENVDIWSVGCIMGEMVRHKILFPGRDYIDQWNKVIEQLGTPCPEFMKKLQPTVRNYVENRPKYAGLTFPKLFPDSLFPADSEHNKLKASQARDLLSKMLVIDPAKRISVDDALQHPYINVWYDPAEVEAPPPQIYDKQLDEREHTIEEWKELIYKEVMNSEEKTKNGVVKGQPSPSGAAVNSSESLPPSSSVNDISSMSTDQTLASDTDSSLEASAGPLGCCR
Sequence of UniProt P30518 (whole entry, looked up): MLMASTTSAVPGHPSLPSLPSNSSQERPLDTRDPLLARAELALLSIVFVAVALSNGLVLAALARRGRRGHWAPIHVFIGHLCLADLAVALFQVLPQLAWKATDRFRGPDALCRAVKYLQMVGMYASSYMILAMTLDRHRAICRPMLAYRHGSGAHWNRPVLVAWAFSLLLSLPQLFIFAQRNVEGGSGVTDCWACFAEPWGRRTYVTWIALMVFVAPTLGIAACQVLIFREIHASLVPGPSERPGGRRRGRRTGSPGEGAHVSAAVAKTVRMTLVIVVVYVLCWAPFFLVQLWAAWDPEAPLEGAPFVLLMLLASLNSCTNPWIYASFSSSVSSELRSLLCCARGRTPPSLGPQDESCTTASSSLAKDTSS
Sequence of UniProt Q96RG2 (whole entry, looked up): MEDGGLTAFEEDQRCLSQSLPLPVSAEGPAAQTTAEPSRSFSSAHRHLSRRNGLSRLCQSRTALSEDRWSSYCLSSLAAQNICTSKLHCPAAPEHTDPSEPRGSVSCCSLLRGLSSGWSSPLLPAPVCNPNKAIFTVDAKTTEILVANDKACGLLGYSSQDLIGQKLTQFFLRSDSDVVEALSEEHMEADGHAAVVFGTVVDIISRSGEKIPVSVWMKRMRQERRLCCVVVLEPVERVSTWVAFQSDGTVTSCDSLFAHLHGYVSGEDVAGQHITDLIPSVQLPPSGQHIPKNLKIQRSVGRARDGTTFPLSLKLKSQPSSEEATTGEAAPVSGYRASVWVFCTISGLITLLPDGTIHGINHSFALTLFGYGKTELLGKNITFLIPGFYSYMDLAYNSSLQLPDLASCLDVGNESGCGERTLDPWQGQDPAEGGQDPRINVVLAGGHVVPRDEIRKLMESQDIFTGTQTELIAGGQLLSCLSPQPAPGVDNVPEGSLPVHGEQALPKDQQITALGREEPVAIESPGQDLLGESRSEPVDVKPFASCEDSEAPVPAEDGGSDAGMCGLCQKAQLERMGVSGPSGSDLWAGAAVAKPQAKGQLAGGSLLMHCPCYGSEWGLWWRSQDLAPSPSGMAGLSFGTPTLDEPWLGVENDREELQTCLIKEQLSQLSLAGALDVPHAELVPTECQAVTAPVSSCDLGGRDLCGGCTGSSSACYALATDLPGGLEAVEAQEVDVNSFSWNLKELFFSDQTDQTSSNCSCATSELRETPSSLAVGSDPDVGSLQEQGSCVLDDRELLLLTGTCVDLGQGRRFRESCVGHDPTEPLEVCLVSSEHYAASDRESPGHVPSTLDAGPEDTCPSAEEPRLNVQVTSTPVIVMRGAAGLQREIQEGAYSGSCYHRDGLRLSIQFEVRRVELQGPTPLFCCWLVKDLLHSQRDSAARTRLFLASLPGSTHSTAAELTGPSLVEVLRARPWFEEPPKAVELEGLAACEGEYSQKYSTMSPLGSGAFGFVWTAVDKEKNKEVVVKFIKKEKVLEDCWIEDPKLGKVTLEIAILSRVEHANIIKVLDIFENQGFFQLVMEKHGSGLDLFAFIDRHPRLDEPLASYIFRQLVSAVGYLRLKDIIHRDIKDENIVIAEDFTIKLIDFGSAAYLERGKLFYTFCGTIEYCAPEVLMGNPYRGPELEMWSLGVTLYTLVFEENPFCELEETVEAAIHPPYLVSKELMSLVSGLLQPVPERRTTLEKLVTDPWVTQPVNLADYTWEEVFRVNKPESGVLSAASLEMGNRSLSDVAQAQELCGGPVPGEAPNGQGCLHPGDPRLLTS
Sequence of UniProt P34969 (whole entry, looked up): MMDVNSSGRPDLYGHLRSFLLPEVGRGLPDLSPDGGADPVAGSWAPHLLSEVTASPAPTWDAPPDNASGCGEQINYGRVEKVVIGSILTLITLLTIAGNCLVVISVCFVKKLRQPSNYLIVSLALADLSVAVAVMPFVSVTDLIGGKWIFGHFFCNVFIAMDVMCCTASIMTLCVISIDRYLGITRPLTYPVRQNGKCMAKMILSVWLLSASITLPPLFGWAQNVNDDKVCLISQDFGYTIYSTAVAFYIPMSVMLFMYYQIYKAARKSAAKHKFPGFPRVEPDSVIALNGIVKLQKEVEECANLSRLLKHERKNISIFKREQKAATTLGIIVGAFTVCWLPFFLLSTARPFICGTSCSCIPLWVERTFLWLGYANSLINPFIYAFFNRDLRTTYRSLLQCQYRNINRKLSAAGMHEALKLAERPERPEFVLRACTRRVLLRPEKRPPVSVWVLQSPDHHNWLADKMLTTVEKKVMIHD

CN(C)[C@H]1C[C@@]23CC[C@@]4(O2)C(=CC[C@]2(C)[C@@H](c5ccc6ccncc6c5)CC[C@H]24)C=C3[C@@H](O)[C@@H]1O — inhibition (EPHB3 (Homo sapiens, UniProt P54753); ATP probe labelling, inhibitor, KiNativ profiling; 1 µM): 9.8%
CC(C)[C@H]1NC(=O)C[C@H]2/C=C/CCSSC[C@@H](NC1=O)C(=O)N[C@H](Cc1cccc3ccccc13)C(=O)NCC(=O)O2 — inhibition (PASK (Homo sapiens, UniProt Q96RG2); enzyme activity, inhibitor; 10 µM): 11.2%
CS(C)(=O)=Nc1ccc(-c2ccc(-c3nc4cc(O[C@@H]5CO[C@H]6[C@@H]5OC[C@H]6O)[nH]c4cc3F)cc2)cc1 — inhibition (AVPR2 (Homo sapiens, UniProt P30518); calcium signal, antagonist; 10 µM): -5%
N[C@H](C(=O)N1CCCC1)C1CCN(c2nccc3c(-c4ncc(Cl)cc4Cl)cccc23)CC1 — inhibition (monoamine oxidase; 10 µM): 1%
CC(C)CC(C(=O)N1CC2(CC1C#N)C(=O)Nc1ccccc12)N(C)C(=O)c1cc2c(F)cc(F)c(F)c2[nH]1 (stereo not drawn) — remaining activity (Replicase polyprotein 1ab, main protease (rep, Porcine epidemic diarrhea virus, UniProt P0C6Y4); protease activity, inhibitor; 1 µM): 71.1%
Nc1ccc(/C=C/C(=O)N2CCc3c(oc4c(-c5ccc(F)cc5)cc(-c5ccc(C(=O)N6CCC(F)(F)CC6)cn5)cc34)C2)cn1 — remaining binding (MAPK10 (Homo sapiens, UniProt P53779); binding, competition with immobilised ligand; 1 µM): 91%
O=C1NC2(CC2)COc2ncc(F)cc2[C@H]2COCCN2c2ccn3ncc1c3n2 — monocyte percentage (Sprague-Dawley rat, male, blood; oral, 2.5 mg/kg/day, 4 weeks, end of recovery, subacute toxicity): 1.5 ± 0.5%
Cc1sc2c(c1C)C(c1ccc(Cl)cc1)=NC(CC(=O)OC(C)(C)C)c1nnc(C)n1-2 (stereo not drawn) — remaining binding (HTR7 (Homo sapiens, UniProt P34969); ligand displacement, radioligand; 1 µM): 112%
O=C1NC(=O)c2c1c1cc(F)c[n+]3c1c1c2c2cc(O)ccc2[n]1[Ru-4]312([N]=C=S)[S+]3CC[S+]1CC[S+]2CC3 (stereo not drawn) — remaining activity (SRC (Homo sapiens, UniProt P12931, T341M); enzyme activity; 100 nM, human enzyme, with: 10 µM ATP; relative to: untreated): 35%
